{"data": "Measurements of several laboratories"}
{"Compound": "CC[C@H](C)[C@H](NC(=O)[C@H](CCCCN)NC(=O)[C@H](CCCCN)NC(=O)[C@H](Cc1ccccc1)NC(=O)[C@H](Cc1ccccc1)NC(=O)[C@H](CCCCN)NC(=O)[C@H](CCCCN)NC(=O)[C@H](Cc1ccccc1)NC(=O)[C@H](CCCNC(=N)N)NC(=O)[C@@H](N)CCCCN)C(=O)N[C@@H](CCCCN)C(=O)N[C@@H](CCCCN)C(=O)N[C@@H](CO)C(=O)N[C@H](C(=O)N[C@@H](CCCCN)C(=O)N[C@@H](CCCCN)C(=O)N[C@@H](CCCNC(=N)N)C(=O)N[C@H](C(=O)N[C@@H](CCCCN)C(=O)N[C@@H](CCCCN)C(=O)N[C@@H](CC(C)C)C(=O)N[C@@H](Cc1ccccc1)C(=O)N[C@@H](CCCCN)C(=O)N[C@@H](CCCCN)C(=O)N1CCC[C@H]1C(=O)N[C@@H](CCCNC(=N)N)C(=O)N[C@H](C(=O)N[C@H](C(=O)N1CCC[C@H]1C(=O)N[C@H](C(=O)N[C@@H](CO)C(=O)N[C@H](C(=O)N1CCC[C@H]1C(=O)N[C@@H](Cc1ccccc1)C(=O)O)[C@@H](C)CC)[C@@H](C)CC)[C@@H](C)CC)C(C)C)C(C)C)C(C)C", "organism": "Pseudomonas aeruginosa", "test system": "P1", "conditions": "20 h, added: 150 mM NaCl", "MIC": "4 µg/mL"}
{"Compound": "CCCCCCCCCCCCCC(=O)N[C@H]1C(=O)N[C@@H](CN)C(=O)N[C@@H](CO)C(=O)N[C@@H](Cc2ccc(O)cc2)C(=O)O[C@H]1C", "organism": "Staphylococcus aureus", "test system": "SH1000", "conditions": "added: sphingomyelin, molar ratio 0.5", "MIC": "2 µg/mL"}
{"Compound": "CCCCCCCC(=O)NCCCC[C@H](NC(=O)CCCCCCC)C(=O)N[C@@H](CCCCNC(=O)CCCCCCC)C(=O)NCC(=O)NCC(=O)NCC(=O)N[C@@H](CS)C(=O)N[C@@H](CCCNC(=N)N)C(=O)N[C@@H](CCCCN)C(=O)N1CCC[C@H]1C(=O)N[C@@H](CS)C(=O)N[C@@H](CCCNC(=N)N)C(=O)N[C@@H](CCCCN)C(=O)N1CCC[C@H]1C(N)=O", "organism": "Candida parapsilosis", "test": "broth microdilution", "test system": "CGMCC 2.399, RPMI-1640", "conditions": "48 h, 30 °C", "MIC": "16 µM"}
{"Compound": "CC(C)CCCCCCCCC/C=C/C(=O)N[C@@H](CC(N)=O)C(=O)N[C@H]1CNC(=O)[C@@H]2CCCN2C(=O)[C@H](C(C)C)NC(=O)[C@@H](CN)NC(=O)CNC(=O)[C@H](CC(=O)O)NC(=O)CNC(=O)[C@H](CC(=O)O)NC(=O)[C@H](CC(=O)O)NC(=O)[C@H]2CCCCN2C1=O", "organism": "Enterococcus", "test": "broth microdilution", "test system": "VRE 155, Mueller-Hinton broth, Mg2+ 10 mg/L", "conditions": "16 h, added: Ca2+ 5 mM", "MIC": "1 µg/mL"}
{"Compound": "CN[C@H](CC(C)C)C(=O)N[C@H]1C(=O)N[C@@H](CC(N)=O)C(=O)N[C@H]2C(=O)N[C@H]3C(=O)N[C@H](C(=O)N[C@H](C(=O)O)c4cc(O)cc(O)c4-c4cc3ccc4O)[C@H](O)c3ccc(c(Cl)c3)Oc3cc2cc(c3O[C@@H]2O[C@H](CO)[C@@H](O)[C@H](O)[C@H]2O[C@H]2C[C@](C)(NCc3ccc(OCc4cn(CCCCC(=O)N[C@H](C(=O)N[C@@H](CCN)C(=O)N[C@H]5CCNC(=O)[C@H]([C@@H](C)O)NC(=O)[C@H](CCN)NC(=O)[C@H](CCN)NC(=O)[C@H](CC(C)C)NC(=O)[C@@H](CC(C)C)NC(=O)[C@H](CCN)NC5=O)[C@@H](C)O)nn4)c(OC)c3)[C@H](O)[C@H](C)O2)Oc2ccc(cc2Cl)[C@H]1O", "organism": "Enterococcus faecalis", "test": "broth microdilution", "test system": "vancomycin-resistant, tryptic soy broth", "conditions": "20 to 24 h, 37 °C, 0.002% polysorbate 80", "MIC": "128 µg/mL"}
{"Compound": "CC(=O)N[C@@H](CC(C)C)C(=O)N[C@H]1CSSC[C@@H](C(=O)N2CCC[C@H]2C(N)=O)NC(=O)[C@H]([C@@H](C)O)NC(=O)[C@H](C(C)C)NC(=O)[C@H]([C@@H](C)O)NC(=O)CNC(=O)[C@H](CC(C)C)NC(=O)[C@H](Cc2ccccc2)NC(=O)[C@H](Cc2ccc(O)cc2)NC(=O)[C@H](CC(C)C)NC(=O)[C@H](CCCCN)NC(=O)[C@H](Cc2ccccc2)NC(=O)[C@H](CCCNC(=N)N)NC(=O)[C@H](CCCCN)NC(=O)[C@H](CC(C)C)NC(=O)[C@H](CCCCN)NC(=O)[C@@H]2CCCN2C(=O)[C@H](CCCCN)NC(=O)[C@H](C(C)C)NC(=O)[C@H](CC(N)=O)NC(=O)[C@H](Cc2ccc(O)cc2)NC(=O)[C@H]([C@@H](C)O)NC1=O", "organism": "Shigella flexneri", "test": "broth dilution", "test system": "CGMCC strain", "conditions": "24 h", "MIC": "2.5 to 5 µM"}
{"Compound": "[O-][N+]1=C(c2ccsc2)C2=NCCCN2c2ccccc21", "organism": "Bacteroides fragilis", "MIC": "0.125 to 1 µg/mL"}
{"Compound": "O=c1n(CCNCCOS(=O)(=O)c2ccccc2)c(=O)n(S(=O)(=O)c2ccccc2)c(=O)n1S(=O)(=O)c1ccccc1", "organism": "Aspergillus fumigatus", "test": "microbial growth, broth dilution", "MIC": "16 µg/mL"}
{"Compound": "OB(O)c1cnn(-c2cccc(Cl)c2)c1", "organism": "Klebsiella aerogenes", "test": "bacterial growth", "test system": "AmpC overproducer clinical isolate", "conditions": "without cefotaxime", "MIC": "> 2050 µg/mL"}
{"Compound": "CC(=O)N[C@@H](CC(C)C)C(=O)N[C@H]1CSSC[C@@H](C(=O)N2CCC[C@H]2C(N)=O)NC(=O)[C@H]([C@@H](C)O)NC(=O)[C@H](C(C)C)NC(=O)[C@H]([C@@H](C)O)NC(=O)CNC(=O)[C@H](CC(C)C)NC(=O)[C@H](Cc2ccccc2)NC(=O)[C@H](Cc2ccc(O)cc2)NC(=O)[C@H](CC(C)C)NC(=O)[C@H](CCCCN)NC(=O)[C@H](Cc2ccccc2)NC(=O)[C@H](CCCNC(=N)N)NC(=O)[C@H](CCC(N)=O)NC(=O)[C@H](CC(C)C)NC(=O)[C@H](CCCCN)NC(=O)[C@@H]2CCCN2C(=O)[C@H](CCCCN)NC(=O)[C@H](C(C)C)NC(=O)[C@H](CCCCN)NC(=O)[C@H](Cc2ccc(O)cc2)NC(=O)[C@H]([C@@H](C)O)NC1=O", "organism": "Shigella flexneri", "test": "broth dilution", "test system": "CGMCC strain", "conditions": "24 h", "MIC": "1.25 to 2.5 µM"}
{"Compound": "CC(C)CCCCCCCCC/C=C/C(=O)N[C@@H](CC(=O)O)C(=O)N[C@H]1CNC(=O)[C@@H]2CCCN2C(=O)[C@H](C(C)C)NC(=O)[C@@H](CN)NC(=O)CNC(=O)[C@H](CC(=O)O)NC(=O)CNC(=O)[C@H](CC(=O)O)NC(=O)[C@H](CC(=O)O)NC(=O)[C@H]2CCCCN2C1=O", "organism": "Enterococcus", "test": "broth microdilution", "test system": "VRE 155, Mueller-Hinton broth, Mg2+ 10 mg/L", "conditions": "16 h, added: Ca2+ 1.0 mM", "MIC": "8 µg/mL"}
{"Compound": "[O-][N+]1=C(c2ccccc2)C2=NCCN2c2ccccc21", "organism": "Bacteroides fragilis", "MIC": "0.06 to 0.125 µg/mL"}
{"Compound": "CC1(C)C(NC(=O)C(=NOC2(C(=O)O)CC2)c2csc(N)n2)C(=O)N1OS(=O)(=O)O (stereo not drawn)", "organism": "Klebsiella pneumoniae", "test": "agar dilution", "test system": "09-20, NDM-1", "MIC": "0.25 µg/mL"}
{"Compound": "[O-][N+]1=C(c2ccc(Cl)cc2)C2=NCCCCN2c2ccccc21", "organism": "Bacteroides spp. and Parabacteroides distasonis", "MIC": "0.5 to 2 µg/mL"}
{"Compound": "CC(=O)N[C@@H](CC(C)C)C(=O)N[C@H]1CSSC[C@@H](C(=O)N2CCC[C@H]2C(N)=O)NC(=O)[C@H]([C@@H](C)O)NC(=O)[C@H](C(C)C)NC(=O)[C@H]([C@@H](C)O)NC(=O)CNC(=O)[C@H](CCCCN)NC(=O)[C@H](Cc2ccccc2)NC(=O)[C@H](Cc2ccc(O)cc2)NC(=O)[C@H](CCCCN)NC(=O)[C@H](CCC(=O)O)NC(=O)[C@H](Cc2ccccc2)NC(=O)[C@H](CCCNC(=N)N)NC(=O)[C@H](CCCCN)NC(=O)[C@H](CC(C)C)NC(=O)[C@H](CC(=O)O)NC(=O)[C@@H]2CCCN2C(=O)[C@H](CCCCN)NC(=O)[C@H](C(C)C)NC(=O)[C@H](CCCCN)NC(=O)[C@H](CCCCN)NC(=O)[C@H]([C@@H](C)O)NC1=O", "organism": "Corynebacterium glutamicum", "test": "broth dilution", "test system": "CGMCC strain", "conditions": "24 h", "MIC": "5 to 10 µM"}
{"Compound": "C[N+]1=C2C(c3ccccc3)=[N+]([O-])c3ccccc3N2CCC1", "organism": "Bacteroides fragilis", "MIC": "0.5 to 4 µg/mL"}
{"Compound": "CCCCCCCCCCCC(=O)NCCCC[C@H](NC(=O)CCCCCCCCCCC)C(=O)N[C@@H](CCCCNC(=O)CCCCCCCCCCC)C(=O)NCC(=O)NCC(=O)NCC(=O)N[C@@H](CS)C(=O)N[C@@H](CCCNC(=N)N)C(=O)N[C@@H](CCCCN)C(=O)N1CCC[C@H]1C(=O)N[C@@H](CS)C(=O)N[C@@H](CCCNC(=N)N)C(=O)N[C@@H](CCCCN)C(=O)N1CCC[C@H]1C(N)=O", "organism": "Candida parapsilosis", "test": "broth microdilution", "test system": "CGMCC 2.399, RPMI-1640", "conditions": "48 h, 30 °C", "MIC": "> 128 µM"}
{"Compound": "C[N+]1=C2C(c3ccc([N+](=O)[O-])cc3)=[N+]([O-])c3ccccc3N2CCC1", "organism": "Bacteroides spp. and Parabacteroides distasonis", "MIC": "0.25 to 2 µg/mL"}
{"Compound": "CC(=O)N[C@@H](CC(C)C)C(=O)N[C@H]1CSSC[C@@H](C(=O)N2CCC[C@H]2C(N)=O)NC(=O)[C@H]([C@@H](C)O)NC(=O)[C@H](C(C)C)NC(=O)[C@H]([C@@H](C)O)NC(=O)CNC(=O)[C@H](CC(C)C)NC(=O)[C@H](Cc2ccccc2)NC(=O)[C@H](Cc2ccc(O)cc2)NC(=O)[C@H](CC(C)C)NC(=O)[C@H](CCCCN)NC(=O)[C@H](Cc2ccccc2)NC(=O)[C@H](CCCNC(=N)N)NC(=O)[C@H](CCC(N)=O)NC(=O)[C@H](CC(C)C)NC(=O)[C@H](CCCCN)NC(=O)[C@@H]2CCCN2C(=O)[C@H](CCCCN)NC(=O)[C@H](C(C)C)NC(=O)[C@H](CC(N)=O)NC(=O)[C@H](Cc2ccc(O)cc2)NC(=O)[C@H]([C@@H](C)O)NC1=O", "organism": "Shigella flexneri", "test": "broth dilution", "test system": "CGMCC strain", "conditions": "24 h", "MIC": "2.5 to 5 µM"}
{"Compound": "[O-][N+]1=C(c2ccccc2)C2=NCCCN2c2ncccc21", "organism": "Bacteroides spp. and Parabacteroides distasonis", "MIC": "0.06 to 0.125 µg/mL"}
{"Compound": "C#CCOc1ccc(CN[C@@]2(C)C[C@H](O[C@H]3[C@H](Oc4c5cc6cc4Oc4ccc(cc4Cl)[C@@H](O)[C@@H](NC(=O)[C@@H](CC(C)C)NC)C(=O)N[C@@H](CC(N)=O)C(=O)N[C@H]6C(=O)N[C@H]4C(=O)N[C@H](C(=O)N[C@H](C(=O)N[C@@H](CCCNC(=N)N)C(N)=O)c6cc(O)cc(O)c6-c6cc4ccc6O)[C@H](O)c4ccc(c(Cl)c4)O5)O[C@H](CO)[C@@H](O)[C@@H]3O)O[C@@H](C)[C@H]2O)cc1OC", "organism": "Enterococcus faecalis", "test": "broth microdilution", "test system": "vancomycin-resistant, tryptic soy broth", "conditions": "20 to 24 h, 37 °C, 0.002% polysorbate 80", "MIC": "32 µg/mL"}
{"note": "For quick reference, copied from above:"}
{"Compound": "CC(C)CCCCCCCCC/C=C/C(=O)N[C@@H](CC(=O)O)C(=O)N[C@H]1CNC(=O)[C@@H]2CCCN2C(=O)[C@H](C(C)C)NC(=O)[C@@H](CN)NC(=O)CNC(=O)[C@H](CC(=O)O)NC(=O)CNC(=O)[C@H](CC(=O)O)NC(=O)[C@H](CC(=O)O)NC(=O)[C@H]2CCCCN2C1=O", "organism": "Enterococcus", "test": "broth microdilution", "test system": "VRE 155, Mueller-Hinton broth, Mg2+ 10 mg/L", "conditions": "16 h, added: Ca2+ 1.0 mM", "MIC": "8 µg/mL"}
{"Compound": "CC1(C)C(NC(=O)C(=NOC2(C(=O)O)CC2)c2csc(N)n2)C(=O)N1OS(=O)(=O)O (stereo not drawn)", "organism": "Klebsiella pneumoniae", "test": "agar dilution", "test system": "09-20, NDM-1", "MIC": "0.25 µg/mL"}
